Measurements pooled from the literature.
Every numbered part comes from another study and shows a few of its results, in no order.

Set 1
Target: Ras GTPase-activating protein-binding protein 1, full length (G3BP1, Homo sapiens, UniProt Q13283)
Chain of UniProt Q13283 (whole entry, looked up): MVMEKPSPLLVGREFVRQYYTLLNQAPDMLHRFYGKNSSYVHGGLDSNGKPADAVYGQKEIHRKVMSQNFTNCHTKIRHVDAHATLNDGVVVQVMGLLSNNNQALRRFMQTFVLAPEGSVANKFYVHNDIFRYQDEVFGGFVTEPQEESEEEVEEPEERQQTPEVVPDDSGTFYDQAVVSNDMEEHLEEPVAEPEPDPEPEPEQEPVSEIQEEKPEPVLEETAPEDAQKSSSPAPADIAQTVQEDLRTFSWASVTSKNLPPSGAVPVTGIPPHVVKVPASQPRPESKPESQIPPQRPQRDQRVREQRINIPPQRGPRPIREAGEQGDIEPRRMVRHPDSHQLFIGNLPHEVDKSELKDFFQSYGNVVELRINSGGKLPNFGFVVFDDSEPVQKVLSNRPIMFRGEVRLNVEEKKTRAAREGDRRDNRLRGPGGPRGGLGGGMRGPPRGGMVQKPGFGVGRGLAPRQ
Technique: RNA Bind-n-Seq
Molecule type: RNA
Medium: in vitro
Tested at: 200 nM
Setting: whole 134-nt RNA, ends assumed
Added: 150 mM LiCl
Reference: input library
Reading: higher = stronger binding
Library: 7-deaza-guanosine replaces G
Constant ends, left off below: GGGAGUUCUACAGUCCGACGAUC … UGGAAUUCUCGGGUGUCAAGG
| Strand | log2 enrichment |
| --- | --- |
| UAACUUUAGAGGAGGAACUGAUGGAUAUGGCAGUGGACGUGGAUUUGGGGAUGGCUAUAAUGGGUAUGGAGGAGGACCUGGAGGUGGCAA | -0.154 |
| UAACUUUAGAGGAGGAUCUGAUGGAUAUGGCAGUGGACGUGGAUAUGGGGAUGGCUAUAAUGGGUAUGGAGGAGGACCUGGAGGUGGCAA | -0.072 |
| CCUCAAGUCCUGUGCUACACAUCGUAUGUACCGAAUCGGAAAGGAGGUUUGGAAAGUAUUAUGUUACGCCGUUCGGAUCUGCACUUCCAG | -0.731 |
| UAGAGACUUCAGAUGGAUUUUAAAAUUGAACACACUUGGGAUGGUUUUCCAGUGAAGCAUGAGCCCGUAUUUAUCAGGCUGAAUCCAGGU | -1.65 |
| UGGUAGGUGGAUUUUGUUUAUUUUUUUAGCUCAUUUCCAGGGGUGGGAAUUUUUUUUUAAUAUGUGUCAUGAAUAAAGUUGUUUUUGAAA | 0.455 |
| CUCAAGUCCUGUGCUACACAUCGUAUGUACCGAAUCGGGGCGGGGCGGGCGGGGAAAGUAUUAUGUUACGCCGUUCGGAUCUGCACUUCC | -0.185 |
| AAGUCCUGUGCUACACAUCGUAUGUACCGAAUCGGAAAGGAAAAAGGUUUUUUUGGAAAGUAUUAUGUUACGCCGUUCGGAUCUGCACUU | -1.59 |
| CACAGACAACACGCACCCACAAAGACACAGAGGGAAGGGGUUGGGAUGGGGACAGGGUGCACAGCAGGGCGGGGUAGGACCCCAGCCCCU | 0.106 |

Set 2
Target: RNA binding protein fox-1 homolog 2, RRM domain, GST-SBP tag (RBFOX2, Homo sapiens, UniProt O43251-10, residues 100-194)
Technique: RNA Bind-n-Seq
Molecule type: RNA
Medium: in vitro
Tested at: 365 nM
Setting: natural RNA segment, single round, ends assumed
Reference: no-protein control
Reading: higher = stronger binding
Constant ends, left off below: GGGAGUUCUACAGUCCGACGAUC … UGGAAUUCUCGGGUGCCAA
Residues (chain): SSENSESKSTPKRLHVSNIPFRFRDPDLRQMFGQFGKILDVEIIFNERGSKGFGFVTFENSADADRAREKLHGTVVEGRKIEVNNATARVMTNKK
| Strand | RBNS enrichment (R) |
| --- | --- |
| AAUUUGAUGCAUAACUUUUAAGUACACUUAACACUUCAGGGCAGGAUUUUACUUUUAUUUUUUAAAAAUACUAAGCAGUGAUCUUUAUUAACUAGGACCAUUUUCCUGAA | 0.47 |
| UACGCUGCUGUCACUUUCUGUCCAGGAGCUGGCACCCCAGGUGUUCUGAGACCUUGAGGGACCCAGACCUUUGGGUCCAAGAGUUUCCCAAACAGCCACGCCUCUCAGGA | 0.304 |
| UCUGAUUCUCAUCAUUGGGAGAUCUUAAAUCUUAGCAAGCAUUAGCAAUAUUAAAUGCCAAAAUUCCAUUGAAACUUUCAAGUUGGAGCAAUUGUCUGUGUUUGAAAAGA | 0.665 |
| AGCAUCCUAAGUGUUAAGGCUGGCUUUAGCAAGGAUUAUGAUCAAUACAACUAUUUUUACUACAAUAAUUAUUUUUCUUCUAUGAGACCCAGAAUCCUGACUCCAUUUGC | 0.645 |
| ACAUAUUCAAGAUCCUACAGUAAGAGUGAAACAUUCACAAAGAUUUGCGUUAAUGAAGACUACACAGAAAACCUUUCUAGGGAUUUGUGUGGAUCAGAUACAUACUUGGC | 0.334 |
| GAGUCUUCCUGUUUUUCCUGUACCGGGUCAUGGUAAUUUUUGGUUGUUUUGGUUGUUUUCUUAAAAAACAAGUUAAAACCUGACGAUUUCUGCAGGCUGUGUAAGCAUGU | 0.752 |
| UCCACAGCCUUUUUAUAAACUGAGCCUCUUCUUAAUGAUUGUUCUGGGCUUGGCAGUAGGAUAGACUUGAUGCCUGCGUUUUGGACCUUAGACCUGCCCGCCUUCGUUCC | 1.88 |
| AAGCAGCUACUUACCCCUCAGAGAAUAAAGUAUUAUGCAUUCUUGUCAAUUUGAAAACUACAUCUACUGUAUUAUUGCUGAAUAUUUUGUUAAUACUAAGGGACAAUUAU | 0.458 |

Set 3
Target: Hepatocyte nuclear factor 3-alpha (Foxa1, Mus musculus, UniProt P35582, residues 1-468, full length assumed)
Technique: EMSA with sequencing
Molecule type: double-stranded DNA, one strand shown
Medium: in vitro
Tested at: 10 and 20 nM
Setting: whole designed probe, mean of two concentrations, ends assumed
Reference: negative control set to 0
Reading: higher = stronger binding
Constant ends, left off below: GTGAGCGGTGCCCATTGATGGGGAAC … TTTCACTGGGATCGTGGGGAC
Residues (chain): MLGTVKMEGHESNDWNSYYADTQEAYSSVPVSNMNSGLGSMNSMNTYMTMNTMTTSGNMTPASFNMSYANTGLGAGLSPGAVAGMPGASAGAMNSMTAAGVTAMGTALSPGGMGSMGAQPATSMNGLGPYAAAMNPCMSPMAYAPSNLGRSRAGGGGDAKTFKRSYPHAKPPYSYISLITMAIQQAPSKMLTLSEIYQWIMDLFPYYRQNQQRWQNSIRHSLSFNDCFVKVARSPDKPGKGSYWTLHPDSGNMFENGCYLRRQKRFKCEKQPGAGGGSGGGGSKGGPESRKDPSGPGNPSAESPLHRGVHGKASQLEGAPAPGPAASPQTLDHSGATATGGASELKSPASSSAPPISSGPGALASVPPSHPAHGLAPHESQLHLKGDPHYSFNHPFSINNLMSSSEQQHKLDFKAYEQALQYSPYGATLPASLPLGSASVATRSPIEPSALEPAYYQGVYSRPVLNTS
| Strand | normalised bound fraction |
| --- | --- |
| TTCATCAGTCTATGCAAGTAAATGTTAACATTCCATGTCCTGTGACAGCTTGGGTGAGAGCTGTAATTTATTGGGTTGGAGGGGGGTTGTGGTTATTTGCATTGTGTAAGCTAAGCCTCATTCTTAACACAGAAAAAAGAATGCTACACAACACCAAAAAGGCTAAAATTTGTTTTGCATTATAAATAACAGA | 0.304 ratio |
| TTTCCAGCCCTTAGTTTCTGGCATTTAACCTGACTCTGGTCCCTGAATGGCATGGGAGTGCTTTCAACCACAGGTTTCCACATTCATGCCACTTGTTTGCTTTTTGATCTACAGAGATCTCTGACTCATTCTTATTTGCTTTGTGTTTCCAATGGAGAAAGAGCTTGGGAAGGGAGGATCCTAATTGTCTAAA | 0.435 ratio |
| ATCTTCCCCCTCTTCCTTGCCCCACCAGCTCACCTTCCCGGGTATCTGCAAATAAGTATTTATTTTCAAGCCGGCATTCGTTAACCCTCTTCTGGCGCAAACTGCTGTTTACTTTGGATGAATCATGGTCCTTTGGCGACGCCAGGCTCCGGGAGAGCAAAGCACCGTGTCAGGGCCATGATCCGGGGTGGCC | 0.398 ratio |
| AACAGGAAATTCCTGGCTATTTTACAGATATAAGTACAGAATTTAAATATTCAAGCTTGTGATGAAAAGCGGCAAGGTGGTCGCAGTGTACAATGTAATCTAGTAGCTTTGGAAATGAACAAAGTCCTTGAGTGTTTTTCTTTATTAAGAAAGAACTCTCTTTCATTCCTTCCTGAAACATGATCACAGGTCA | -0.0437 ratio |
| AGGTGAATTGGCTGCTTCCATCCTGGCTTGGAACTTCAGACATAGAAGCCTTGGGACTTTCTCAGGACTTTCTCCAGACTGACTCATGCTGCTTGTTTGCTGAATCTCTGTGGATCACGTGACCTTAGCCAGGGATGTTGGTGAAACTGTGTGTTGGTCTAGGTACCTAGCCCATGCTAGGTGCTCATCGAAT | 0.0559 ratio |

Set 4
Target: Histone acetyltransferase KAT6A, both winged helices, GST fusion (KAT6A, Homo sapiens, UniProt Q92794, residues 1-181)
Technique: protein binding microarray
Molecule type: double-stranded DNA, one strand shown
Medium: in vitro
Tested at: not given
Setting: 8-mer, flanks averaged, mean of 2 arrays, mostly near background
Reference: not given
Reading: higher = stronger binding
Residues (chain): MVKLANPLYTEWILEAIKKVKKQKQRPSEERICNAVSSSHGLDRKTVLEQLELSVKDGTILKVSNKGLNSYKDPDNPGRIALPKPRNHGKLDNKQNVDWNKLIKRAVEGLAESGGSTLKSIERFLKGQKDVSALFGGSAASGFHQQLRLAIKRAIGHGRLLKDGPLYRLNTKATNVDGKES
| Strand | E-score |
| --- | --- |
| ACTTTTCG | -0.0395 |
| AAGCGCAC | 0.267 |
| AATTCTGT | -0.0214 |
| AGAGCGCC | 0.244 |
| ATGAGATG | -0.157 |
| ATTATCGC | 0.00421 |
| ACTTACGC | 0.101 |
| CCAACAAA | -0.193 |
| GAACCCTA | -0.0376 |
| AACGTGTC | 0.0691 |
| GGATATCC | 0.114 |
| TAACCTGA | -0.157 |
| CCATAAAG | -0.272 |
| CCGGACAC | 0.139 |
| CTGTAGAA | -0.265 |
| AAGTCATA | -0.13 |
| CTGGGTTC | -0.0419 |
| GATTATGC | 0.0934 |
| ACGGGTAT | 0.212 |
